Experimental data gathered from unrelated publications.
Compare with care: the assays were run in different laboratories. “And” joins repeats or separate records; there may be more than shown. ± marks the error that the study gave.

`O=C(c1nc2n(n1)[C@H](c1ccccc1)C[C@@H]2F)C1CC1` gave an AUC0-last ratio of 1 (human; oral, 75 mg; baseline: high-fat meal over fasted).
`COc1ccc2c(c1)CN(C(=O)CCN1CCC(Cc3ccccc3)CC1)CC[S@@+]2[O-]` gave a QT interval of 214 ± 19 ms (telemetry; conscious male beagle dogs; intravenous, 4 mg/kg, 0.5 h).
For `CCn1c(=O)c(-c2cc(NC(=O)Nc3ccccc3)c(F)cc2Br)cc2cnc(NC)cc21`, the unbound fraction was at most 0.6% (plasma protein binding, ultracentrifugation; human subjects with hepatic impairment, plasma; oral, 50 mg, 24 h post-dose).
With `CC(C)=CC[C@@H](O)C1=CC(=O)c2c(O)ccc(O)c2C1=O` the measured concentration was 0.48 ± 0.02 ng/mL (plasma; 0.5 ng/mL, 3 d, -80 °C, storage stability).
`O=C1CCc2ccc(OCCCCN3CCN(c4cccc(Cl)c4Cl)CC3)cc2N1`: “adverse event incidence” 14% (refers to: Tremor; patients, CYP2D6 ultrarapid metabolizers; dose not given, long-acting oral or depot).
For `Cc1ccc(Sc2ccccc2N2CCNCC2)c(C)c1`, “participants with TEAE” read 0% (refers to: ureteric calculus; healthy adult men; oral, 20 mg daily, 12 days).
`C[C@@H]1COCCN1c1cc([C@]2(O)C[C@H]3CC[C@@H](C2)O3)c2cnn(-c3cc[nH]n3)c2n1` gave a blood-to-plasma ratio of 0.6 (mouse, whole blood and plasma).
`C=CC(=O)Nc1cc(Nc2nccc(-c3cn(C4CC4)c4ccccc34)n2)c(OC)cc1N(C)CCN(C)C` has a uric acid of 235 ± 13.8 µmol/L (BALB/c nude mice, LU0387 xenograft, serum; oral, 40 mg/kg).
`O=C(O)c1cccc(C(=O)O)c1`: “apparent dissolution enthalpy” 10.5 kcal/mol (betaine/ethylene glycol DES-water; DES mass fraction 0.90).
`CCOCC(=O)N1CCC[C@H](C(=O)NCc2nc(-c3ccc(C)nc3)cs2)C1` gave a urinary excretion of 2.7% (Sprague-Dawley rat, male, urine; intravenous, 1 mg/kg, 24 h; baseline: dose).
`CC(C)NCCCC[C@@H]1NC(=O)[C@H](Cc2ccc(O)cc2)NC(=O)[C@H](Cc2ccccc2)NC(=O)CC[C@H](C(=O)N[C@@H](CCCCNC(C)C)C(=O)N[C@@H](CCCCNC(=O)[C@H](CCC(=O)O)NC(=O)[C@H](CCC(=O)O)NC(=O)[C@H](CCC(=O)O)NC(=O)CN2CCN(CC(=O)O)CCN(CC(=O)O)CCN(CC(=O)O)CC2)C(N)=O)NC(=O)CNC(=O)[C@H](Cc2ccc3ccccc3c2)NC(=O)[C@@H](CCCNC(=N)N)NC1=O` [gallium-68 labelled] gave a tissue uptake of 0.2 %ID/g (mouse with PC-3 xenograft, heart; intravenous, 1 h).
For `COc1cc(C(=O)N2CCC3(CC2)CC(=O)c2c(cnn2C(C)C)C3)cc(-c2ccc(C(=O)O)cc2)n1`, “total cholesterol change from baseline” read -10.1% (human, fasting serum; 100 mg once daily, day 13, adjusted geometric mean).
`CC(C)n1c(Nc2cccnc2)nc2cnc(Nc3ccc(N4CCN(C)CC4)cc3)nc21` — result for “subjects with adverse event”: 7.1% (refers to: antithrombin III antibodies elevated; healthy male subjects; oral, 150 mg, study, added: rifampin).
`O=C(O)CCCCCCCCCCCCCCCCC(=O)O`: “relative peak deviation” 27.1 ± 3.6% (human, plasma; endogenous baseline diurnal; baseline: daily mean concentration).
For `NCc1cc2c(cc1F)C(=O)N(C1CCC(=O)NC1=O)C2` (stereo not shown), the remaining compound was under 1% (male Beagle dog, whole blood; 3 h).
`FC(F)(F)c1ccc(CNc2ccc(Cc3c[nH]c4ncc(Cl)cc34)cn2)cn1`: “treatment-related adverse events” 20% (refers to: Diarrhea; patients with advanced solid tumours, all cohorts; oral, 1000 mg/day, any grade).
`CCc1c(-c2ccccc2)c(-c2ccccc2)nn1-c1ccccc1-c1cccc(OCC(=O)O)c1` gave a concentration of 290 ng/g (female Sprague-Dawley rat, uterus; oral, 10 mg/kg, 8 h).
With `C[C@@]1(c2cc(NC(=O)c3ccc(C#N)cn3)ccc2F)C=CSC(N)=N1` the dose-normalised AUC(0-last) was 83.7 ng·h/mL (elderly humans, both sexes, plasma; oral, 30 mg single dose).
With `CO[C@H]1C[C@@H]2CC[C@@H](C)[C@@](O)(O2)C(=O)C(=O)N2CCCC[C@H]2C(=O)O[C@H]([C@H](C)C[C@@H]2CC[C@@H](OC(=O)NCCOCCOCCOCCOCCOCCOCCOCCOCCC(=O)N3CCc4cc(Cn5nc(-c6ccc7oc(N)nc7c6)c6c(N)ncnc65)ccc4C3)[C@H](OC)C2)C[C@@H](O)[C@H](C)/C=C(\C)[C@@H](O)[C@@H](OC)C(=O)[C@H](C)C[C@H](C)/C=C/C=C/C=C/1C` the unbound Cmax was 18.9 nM (human patients, plasma; intravenous, 8 mg, cycle 1 day 15).
Under “patients with adverse event”, `CNC(=O)c1ccc(-c2cnc3ncc(Cc4ccc5ncccc5c4)n3n2)cc1F` is recorded as 24% (refers to: Diarrhea, all grades; cancer patients; oral, dose not given, dose escalation, any causality).
`C[C@@H](Oc1ccc(S(C)(=O)=O)cc1C(=O)N1C[C@@H]2C[C@]2(c2cc(C(F)(F)F)on2)C1)C(F)(F)F` — result for “fed over fasted ratio”: 114% (refers to: AUC0–inf; healthy human volunteers; oral, 10 mg; baseline: fed over fasted).
`CCO` — result for “blood triglycerides increased”: 0% (human; concentration not given, treatment-emergent adverse event).
`O=C(O)CSc1nnc(Br)n1-c1ccc(C2CC2)c2ccccc12` gave a body weight of 32.2 g and 26.8 g and 34.8 g and 26.6 g and 31.2 g (KM mouse, chronic hyperuricaemia model; dose not given, day 11).
With `CCO[C@H]1CCN(Cc2c(OC)cc(C)c3[nH]ccc23)[C@H](c2ccc(C(=O)O)cc2)C1` the unbound half-life was 14 h (healthy volunteers, plasma; oral, 200 mg single dose, geometric mean).
`NC1(C(=O)N[C@@H](CCO)c2ccc(Cl)cc2)CCN(c2ncnc3[nH]ccc23)CC1` — result for “geometric mean Cmax”: 666 ng/mL (human patients, plasma; 240 mg twice daily, day 8, continuous dosing).
Under “urinary magnesium excretion change”, `Cc1ccc([C@@H]2O[C@H](CO)[C@@H](O)[C@H](O)[C@H]2O)cc1Cc1ccc(-c2ccc(F)cc2)s1` is recorded as 6.77 mg (Japanese type 2 diabetes patients; 200 mg, day 16, 24 h urine collection; baseline: baseline).
`NS(=O)(=O)c1ccc(-n2nc(C(F)(F)F)cc2-c2ccc(C(=O)O)cc2)cc1` gave a blood-to-plasma ratio of 2.3 (Sprague-Dawley rat; oral, 20 mg/kg of celecoxib, 4 h).
`FC(F)(F)c1ccc(CNc2ccc(Cc3c[nH]c4ncc(Cl)cc34)cn2)cn1` — result for “adverse event incidence”: 0% (refers to: Dysgeusia; patients with advanced solid tumours; oral, dose not given, grade 3 and 4, possibly related to drug).
For `COc1ncc(-c2nc3c(n2C(C)C)[C@H](c2ccc(Cl)cc2)N(c2cc(Cl)cn(C)c2=O)C3=O)c(OC)n1`, the median Tmax was 2 h (human patients, plasma; oral, 20 mg, low-dose arm, cycle 2 day 1).
`CNCc1ccc(-c2[nH]c3cc(F)cc4c3c2CCNC4=O)cc1` gave a diarrhoea incidence of 22.2% (human patients; oral, 480 mg twice daily, all grades).
`O=C(Nc1nc2cccc(-c3ccc(CN4CCS(=O)(=O)CC4)cc3)n2n1)C1CC1`: “treatment-emergent adverse events” 0% (refers to: pharyngitis; human rheumatoid arthritis patients; oral, 200 mg once daily, 4 weeks, regardless of relatedness).
`NC1(C(=O)N[C@@H](CCO)c2ccc(Cl)cc2)CCN(c2nc[nH]c3nccc2-3)CC1`: “blood creatinine increased incidence” 0% (human mCRPC patients; oral, twice daily, 4/7 days, grade 3/4, treatment-related, added: enzalutamide 160 mg daily).
With `CCN1/C(=C/C(C)=O)Sc2ccc(F)cc21` the PR interval was 91 ± 4 ms (cynomolgus monkey; oral, 30 mg/kg, 1 h post-dose).
`C=CCN1CC(=O)N2[C@@H](Cc3ccc(O)cc3F)C(=O)N(Cc3cccc(N4CC(N5CCN(CC)CC5)C4)n3)C[C@@H]2N1C(=O)NCc1ccccc1` has a treatment-related diarrhoea of 0% (advanced solid tumour patients; oral, 15 mg twice daily, any grade, dose-escalation).
`O=C(Nc1cnccc1Cl)N1CCN(Cc2ccc3c(c2)OC(F)(F)O3)CC1` gave a dose-normalized Cmax of 90 ng/mL (young men, plasma; oral, 25 mg once daily, day 10, normalized to 10 mg).
The half-life of `N=C(N)NCCNC(=O)C1(Nc2ccccc2)CCN(Cc2ccccc2)CC1` is reported as 0.2 h (Sprague-Dawley rats, both sexes, plasma; oral, 50 mg/kg, mean of both sexes).
`CCc1cc(C(=O)NC)c2nccc(N3CCc4c(cc(Cn5ccnc5)cc4-c4cn(C)nc4C(F)(F)F)C3=O)c2c1`: “mean platelet volume” 8.15 ± 0.13 fL (Sprague Dawley rats; oral, 50 mg/kg once daily, 7 days).
For `CCOc1c([C@H](C)n2nc(C)c3c(N)ncnc32)cc(Cl)c(F)c1[C@@H]1CNC(=O)C1`, the ECG observations was 92.9% (refers to: QTcF ≤450 ms; previously treated B-cell malignancy; oral, 30 mg once daily, overall population).
`CNC(=O)c1cccc(-c2ccc([C@@H](O)[C@H]3O[C@H](CO)[C@@H](O)[C@H](O)[C@@H]3O)c(C)c2)c1` has a urinary recovery of 0.19% (male Sprague-Dawley rat, urine; oral, 10 mg/kg, 24 h, mean; baseline: dose).
`Cl.[2H]C([2H])([2H])CC(=O)c1cnc(NC(=O)C2CC2)cc1Nc1cccc(-c2ncn(C([2H])([2H])[2H])n2)c1OC` has an AUC(0-tau) of 2090 ng·h/mL (geometric mean; human; oral, 40 mg twice daily, day 1, fed, liquid, multiple dose).
`COc1cc(Nc2ncc3c(n2)-c2ccc(Cl)cc2C(c2c(F)cccc2OC)=NC3)ccc1C(=O)O`: “patients with adverse event” 46% (refers to: Hyponatremia, all grades; cancer patients, phase 1/2; oral, dose not given, added: pembrolizumab).
For `CCCCCCCCCCCCCCCC(=O)N[C@@H](CCC(=O)NCCCC[C@@H]1NC(=O)[C@H]([C@@H](C)CC)NC(=O)[C@@H](NC(=O)[C@@H]2CCCN2C(=O)[C@H](Cc2ccccc2)NC(=O)[C@H](Cc2c[nH]cn2)NC(=O)[C@@H](NC(=O)[C@H](CC(=O)O)NC(=O)CC(C)C)[C@@H](C)O)CSSC[C@@H](C(=O)N[C@@H](CCCCN)C(N)=O)NC(=O)CNC(=O)[C@H](CCCCN)NC(=O)[C@H](CO)NC(=O)[C@H](CCCNC(=N)N)NC(=O)[C@@H]2CCCN2C(=O)[C@H](CCC(=O)O)NC(=O)[C@H](Cc2ccccc2)NC1=O)C(=O)O`, “AUC(0-inf) share of total” read 55.2 ± 4.96% (healthy volunteers, plasma; subcutaneous, 60 mg; baseline: parent plus metabolites).
Under sobetirome level, `Cc1cc(OCC(=O)OCCN)cc(C)c1Cc1ccc(O)c(C(C)C)c1.Cl` is recorded as “decreased” (LC-MS/MS, refers to: liberated sobetirome; mouse, liver; intraperitoneal, 1.5 µmol/kg, 30 min; baseline: direct sobetirome injection).
